Published values collected from several papers.
Each numbered part is a random draw from the data of one study; scales do not carry over between parts. Positions count from the first letter of the parent shown.
Sequence of UniProt P36896 (whole entry, looked up): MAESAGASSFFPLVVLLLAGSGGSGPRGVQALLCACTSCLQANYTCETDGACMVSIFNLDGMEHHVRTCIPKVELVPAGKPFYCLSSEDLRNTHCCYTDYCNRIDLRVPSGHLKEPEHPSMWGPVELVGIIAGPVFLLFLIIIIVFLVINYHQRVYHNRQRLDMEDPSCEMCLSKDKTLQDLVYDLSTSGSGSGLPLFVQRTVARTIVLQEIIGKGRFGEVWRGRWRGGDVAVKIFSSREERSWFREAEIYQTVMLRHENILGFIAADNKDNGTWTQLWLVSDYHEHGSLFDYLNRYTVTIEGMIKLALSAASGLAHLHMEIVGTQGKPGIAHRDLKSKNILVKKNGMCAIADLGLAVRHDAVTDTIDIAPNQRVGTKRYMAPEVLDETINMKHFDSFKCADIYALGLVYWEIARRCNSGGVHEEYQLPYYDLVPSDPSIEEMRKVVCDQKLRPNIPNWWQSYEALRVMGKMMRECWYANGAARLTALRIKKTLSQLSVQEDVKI
Sequence of UniProt P22607 (whole entry, looked up): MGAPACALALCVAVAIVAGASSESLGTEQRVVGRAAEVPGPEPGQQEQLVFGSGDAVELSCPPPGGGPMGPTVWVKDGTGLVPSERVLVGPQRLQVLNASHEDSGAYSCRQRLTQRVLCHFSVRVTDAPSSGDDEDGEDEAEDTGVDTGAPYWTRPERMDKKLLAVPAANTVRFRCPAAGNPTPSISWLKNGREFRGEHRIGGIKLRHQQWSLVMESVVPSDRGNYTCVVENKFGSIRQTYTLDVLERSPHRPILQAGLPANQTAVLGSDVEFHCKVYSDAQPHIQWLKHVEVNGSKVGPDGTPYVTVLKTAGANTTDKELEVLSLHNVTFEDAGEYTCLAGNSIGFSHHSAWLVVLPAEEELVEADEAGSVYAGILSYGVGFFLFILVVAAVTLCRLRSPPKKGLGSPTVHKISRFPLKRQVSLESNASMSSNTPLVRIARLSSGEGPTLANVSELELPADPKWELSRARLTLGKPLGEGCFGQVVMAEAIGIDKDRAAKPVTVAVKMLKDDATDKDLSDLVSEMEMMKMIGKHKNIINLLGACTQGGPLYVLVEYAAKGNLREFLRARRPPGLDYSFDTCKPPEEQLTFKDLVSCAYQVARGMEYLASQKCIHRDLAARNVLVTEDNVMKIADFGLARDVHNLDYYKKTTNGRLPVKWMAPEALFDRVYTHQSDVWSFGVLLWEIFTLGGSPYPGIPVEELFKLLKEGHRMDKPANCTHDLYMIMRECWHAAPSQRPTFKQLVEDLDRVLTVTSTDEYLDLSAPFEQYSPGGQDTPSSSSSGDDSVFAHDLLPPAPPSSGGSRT
Sequence of UniProt P52333 (whole entry, looked up): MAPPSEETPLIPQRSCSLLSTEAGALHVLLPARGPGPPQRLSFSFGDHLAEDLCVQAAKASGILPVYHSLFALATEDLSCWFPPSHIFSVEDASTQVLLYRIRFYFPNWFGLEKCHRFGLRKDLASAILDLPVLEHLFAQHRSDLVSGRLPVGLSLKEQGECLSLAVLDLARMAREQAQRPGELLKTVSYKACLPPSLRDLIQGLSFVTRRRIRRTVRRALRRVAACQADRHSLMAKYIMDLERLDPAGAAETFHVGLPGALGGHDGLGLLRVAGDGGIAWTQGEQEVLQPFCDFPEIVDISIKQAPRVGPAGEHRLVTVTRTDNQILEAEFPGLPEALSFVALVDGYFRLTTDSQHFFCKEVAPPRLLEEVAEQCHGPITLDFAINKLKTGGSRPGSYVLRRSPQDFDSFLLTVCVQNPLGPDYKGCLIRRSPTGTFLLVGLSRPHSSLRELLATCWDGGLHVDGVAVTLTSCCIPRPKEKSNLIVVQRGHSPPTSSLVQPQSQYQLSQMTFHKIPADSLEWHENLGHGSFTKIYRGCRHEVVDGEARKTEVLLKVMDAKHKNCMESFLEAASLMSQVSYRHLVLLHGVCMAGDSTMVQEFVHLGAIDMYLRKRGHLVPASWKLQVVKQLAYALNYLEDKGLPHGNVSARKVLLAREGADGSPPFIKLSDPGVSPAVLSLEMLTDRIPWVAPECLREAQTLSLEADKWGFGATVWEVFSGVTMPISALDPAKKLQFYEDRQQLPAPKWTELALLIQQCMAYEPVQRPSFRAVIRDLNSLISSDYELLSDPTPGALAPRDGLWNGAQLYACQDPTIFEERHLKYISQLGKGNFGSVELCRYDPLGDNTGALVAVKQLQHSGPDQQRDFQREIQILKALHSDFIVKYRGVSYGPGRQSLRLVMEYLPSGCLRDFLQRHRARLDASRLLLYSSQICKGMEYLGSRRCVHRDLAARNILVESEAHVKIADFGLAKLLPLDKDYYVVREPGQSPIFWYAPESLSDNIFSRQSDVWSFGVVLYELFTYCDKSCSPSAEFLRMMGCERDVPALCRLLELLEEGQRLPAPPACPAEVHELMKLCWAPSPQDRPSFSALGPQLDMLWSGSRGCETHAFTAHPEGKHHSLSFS
Sequence of UniProt Q9Y6M4 (whole entry, looked up): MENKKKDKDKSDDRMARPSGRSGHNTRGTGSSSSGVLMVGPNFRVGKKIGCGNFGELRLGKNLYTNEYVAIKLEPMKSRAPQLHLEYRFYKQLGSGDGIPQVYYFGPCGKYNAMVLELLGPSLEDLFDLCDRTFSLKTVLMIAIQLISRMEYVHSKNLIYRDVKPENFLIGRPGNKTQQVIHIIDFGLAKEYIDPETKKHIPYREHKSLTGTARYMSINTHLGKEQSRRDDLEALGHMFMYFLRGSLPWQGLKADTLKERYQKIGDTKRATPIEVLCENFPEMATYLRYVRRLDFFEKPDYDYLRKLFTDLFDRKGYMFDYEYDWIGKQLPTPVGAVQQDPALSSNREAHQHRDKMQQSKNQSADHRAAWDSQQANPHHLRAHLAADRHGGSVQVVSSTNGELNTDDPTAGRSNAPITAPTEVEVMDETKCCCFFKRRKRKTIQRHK
Sequence of UniProt P49137 (whole entry, looked up): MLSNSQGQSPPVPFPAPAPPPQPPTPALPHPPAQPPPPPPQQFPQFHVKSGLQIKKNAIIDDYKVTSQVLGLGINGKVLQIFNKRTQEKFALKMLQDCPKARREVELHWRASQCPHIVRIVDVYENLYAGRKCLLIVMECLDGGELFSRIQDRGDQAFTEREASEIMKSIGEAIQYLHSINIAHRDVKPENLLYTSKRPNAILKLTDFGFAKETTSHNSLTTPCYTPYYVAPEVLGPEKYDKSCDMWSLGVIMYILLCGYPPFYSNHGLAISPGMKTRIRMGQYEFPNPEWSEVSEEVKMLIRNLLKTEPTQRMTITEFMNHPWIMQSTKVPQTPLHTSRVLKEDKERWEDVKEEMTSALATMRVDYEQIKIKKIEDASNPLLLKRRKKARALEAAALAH
Sequence of UniProt Q96PY6 (whole entry, looked up): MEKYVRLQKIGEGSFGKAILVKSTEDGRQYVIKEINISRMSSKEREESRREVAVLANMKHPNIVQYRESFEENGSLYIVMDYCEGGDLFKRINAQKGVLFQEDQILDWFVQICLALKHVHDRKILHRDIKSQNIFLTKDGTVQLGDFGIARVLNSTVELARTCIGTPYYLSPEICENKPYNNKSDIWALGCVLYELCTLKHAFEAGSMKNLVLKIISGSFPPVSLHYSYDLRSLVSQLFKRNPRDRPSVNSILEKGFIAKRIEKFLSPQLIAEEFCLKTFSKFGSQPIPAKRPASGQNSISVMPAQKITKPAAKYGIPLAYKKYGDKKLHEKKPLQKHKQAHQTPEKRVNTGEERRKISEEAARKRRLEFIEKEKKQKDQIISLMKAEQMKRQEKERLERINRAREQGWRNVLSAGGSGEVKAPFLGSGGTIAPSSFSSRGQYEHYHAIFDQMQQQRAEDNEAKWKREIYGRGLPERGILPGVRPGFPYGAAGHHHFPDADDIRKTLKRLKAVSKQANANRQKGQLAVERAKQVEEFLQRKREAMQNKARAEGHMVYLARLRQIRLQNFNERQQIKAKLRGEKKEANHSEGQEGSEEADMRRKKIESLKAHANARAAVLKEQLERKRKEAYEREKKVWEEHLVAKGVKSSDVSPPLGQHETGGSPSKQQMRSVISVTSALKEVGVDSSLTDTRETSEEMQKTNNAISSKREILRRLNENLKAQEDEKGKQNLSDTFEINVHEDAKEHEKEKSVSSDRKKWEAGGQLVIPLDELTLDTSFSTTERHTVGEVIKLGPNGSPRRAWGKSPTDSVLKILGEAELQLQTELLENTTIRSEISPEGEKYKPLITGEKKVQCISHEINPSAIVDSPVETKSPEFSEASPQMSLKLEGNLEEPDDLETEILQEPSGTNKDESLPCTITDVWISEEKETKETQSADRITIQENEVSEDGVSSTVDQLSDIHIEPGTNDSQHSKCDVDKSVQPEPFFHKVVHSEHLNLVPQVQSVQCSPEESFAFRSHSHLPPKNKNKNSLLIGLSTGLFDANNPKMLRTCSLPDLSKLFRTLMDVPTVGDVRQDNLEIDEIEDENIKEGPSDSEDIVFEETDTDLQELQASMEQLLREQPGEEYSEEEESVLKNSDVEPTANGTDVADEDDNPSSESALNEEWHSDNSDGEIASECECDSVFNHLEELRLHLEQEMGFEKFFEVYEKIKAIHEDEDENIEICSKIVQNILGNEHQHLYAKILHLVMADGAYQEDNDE
Sequence of UniProt P78368 (whole entry, looked up): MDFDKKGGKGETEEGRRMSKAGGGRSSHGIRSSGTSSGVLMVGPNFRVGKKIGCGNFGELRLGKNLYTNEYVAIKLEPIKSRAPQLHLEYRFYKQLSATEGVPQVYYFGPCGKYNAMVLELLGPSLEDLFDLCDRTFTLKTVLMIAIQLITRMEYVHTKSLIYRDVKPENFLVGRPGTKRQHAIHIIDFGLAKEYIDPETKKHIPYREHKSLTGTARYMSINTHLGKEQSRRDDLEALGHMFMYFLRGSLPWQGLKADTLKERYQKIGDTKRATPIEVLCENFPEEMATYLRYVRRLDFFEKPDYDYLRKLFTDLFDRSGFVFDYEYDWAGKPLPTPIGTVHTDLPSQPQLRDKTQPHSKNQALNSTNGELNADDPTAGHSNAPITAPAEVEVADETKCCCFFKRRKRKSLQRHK

Block 1 — Variant: E130K; technique: DHFR PCA, deep sequencing; matrix: yeast; reference: wild-type fitted maximum; direction: higher = stronger binding
Target: ABI1, truncated, D143A, DHFR fusion (Arabidopsis thaliana)
Setting: methotrexate growth selection, single substitutions
Starting sequence: PYL1, truncated, DHFR fusion (Arabidopsis thaliana); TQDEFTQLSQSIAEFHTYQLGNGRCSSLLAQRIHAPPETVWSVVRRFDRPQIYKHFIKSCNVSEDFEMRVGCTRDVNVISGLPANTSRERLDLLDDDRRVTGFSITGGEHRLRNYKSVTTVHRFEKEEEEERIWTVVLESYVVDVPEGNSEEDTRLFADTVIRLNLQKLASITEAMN
together with | relative binding score [%]
(+)-ABA 0.0091 µM | 39.6
(+)-ABA 200 µM | 114
(+)-ABA 4.8 µM | 84.2
(+)-ABA 710 µM | 115
(+)-ABA 2500 µM | 108
(+)-ABA 0.032 µM | 50.5

Block 2 — effect on: cell-free assay; technique: competition with immobilised ligand; tested at: 1 µM
SMILES: CO[C@H]1CC[C@H](CNc2ccc(S(=O)(=O)NC(=O)c3ccc(N4CCN(CC5=C(c6ccc(Cl)cc6)CC(C)(C)CC5)CC4)cc3Oc3cnc4[nH]ccc4c3)cc2[N+](=O)[O-])CC1
target | remaining binding [%]
NTRK2 (Homo sapiens, UniProt Q16620) | 100
SRPK2 (Homo sapiens, UniProt P78362) | 55
NEK11 (Homo sapiens, UniProt Q8NG66) | 100
PRKCD (Homo sapiens, UniProt Q05655) | 70
FGFR4 (Homo sapiens, UniProt P22455) | 87
MAP4K5 (Homo sapiens, UniProt Q9Y4K4) | 93

Block 3 — effect on: enzyme activity; mode: inhibitor; tested at: 0.5 µM; reference: control
SMILES: CCN(CC)CCNC(=O)c1c(C)[nH]c(/C=C2\C(=O)Nc3ccc(Cl)cc32)c1C
target | remaining activity [%]
ABL2 (Homo sapiens, UniProt P42684) | 46.8
CSNK1G2 (Homo sapiens, UniProt P78368) | 45.2
JAK3 (Homo sapiens, UniProt P52333) | 39.3
FGFR1 (Homo sapiens, UniProt P11362) | 20.3
FGFR3 (Homo sapiens, UniProt P22607) | 12.3
MAP3K14 (Homo sapiens, UniProt Q99558) | 118
ACVR1B (Homo sapiens, UniProt P36896) | 103
TEK (Homo sapiens, UniProt Q02763) | 98.2
NEK1 (Homo sapiens, UniProt Q96PY6) | 94.7
CSNK1G3 (Homo sapiens, UniProt Q9Y6M4) | 47.7
MAPKAPK2 (Homo sapiens, UniProt P49137) | 103

Block 4 — technique: RNA Bind-n-Seq; molecule type: RNA; matrix: in vitro; tested at: 20 nM; setting: 6-mer, flanks averaged, single round; together with: 150 mM KCl; reference: input library; direction: higher = stronger binding
Target: TAR DNA-binding protein 43, full length, His tag (TARDBP, Homo sapiens, UniProt Q13148, residues 1-414)
Oligonucleotide | 6-mer enrichment (R)
CAUGAG | 1
UUGUCC | 0.63
GGCAUC | 0.983
CCUGCC | 0.646
GAUAUA | 0.657
CCCAUC | 0.593
GAAAGA | 0.894
AAACAC | 0.604

Repeated from above (block 2):
target | remaining binding [%]
MAP4K5 (Homo sapiens, UniProt Q9Y4K4) | 93
NEK11 (Homo sapiens, UniProt Q8NG66) | 100
PRKCD (Homo sapiens, UniProt Q05655) | 70
NTRK2 (Homo sapiens, UniProt Q16620) | 100
